# Assay results of several laboratories.
# By UniProt entry, the sequences of proteins in these tests, tags left out. Residues count along the entry.
# UniProt P05177, whole entry: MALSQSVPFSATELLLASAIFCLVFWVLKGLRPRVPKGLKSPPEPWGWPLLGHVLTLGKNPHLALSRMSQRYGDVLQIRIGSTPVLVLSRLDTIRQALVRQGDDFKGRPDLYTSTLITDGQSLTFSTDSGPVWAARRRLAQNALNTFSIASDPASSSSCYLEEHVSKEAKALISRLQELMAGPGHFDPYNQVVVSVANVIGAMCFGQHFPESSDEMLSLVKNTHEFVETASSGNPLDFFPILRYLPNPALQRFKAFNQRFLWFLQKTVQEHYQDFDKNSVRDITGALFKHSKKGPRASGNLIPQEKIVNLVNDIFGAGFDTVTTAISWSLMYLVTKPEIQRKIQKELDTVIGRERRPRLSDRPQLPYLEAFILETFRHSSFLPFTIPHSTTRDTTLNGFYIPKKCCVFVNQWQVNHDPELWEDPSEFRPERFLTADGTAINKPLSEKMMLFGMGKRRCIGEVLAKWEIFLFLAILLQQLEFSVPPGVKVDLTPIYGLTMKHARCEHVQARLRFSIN
# UniProt P9WPP7, whole entry: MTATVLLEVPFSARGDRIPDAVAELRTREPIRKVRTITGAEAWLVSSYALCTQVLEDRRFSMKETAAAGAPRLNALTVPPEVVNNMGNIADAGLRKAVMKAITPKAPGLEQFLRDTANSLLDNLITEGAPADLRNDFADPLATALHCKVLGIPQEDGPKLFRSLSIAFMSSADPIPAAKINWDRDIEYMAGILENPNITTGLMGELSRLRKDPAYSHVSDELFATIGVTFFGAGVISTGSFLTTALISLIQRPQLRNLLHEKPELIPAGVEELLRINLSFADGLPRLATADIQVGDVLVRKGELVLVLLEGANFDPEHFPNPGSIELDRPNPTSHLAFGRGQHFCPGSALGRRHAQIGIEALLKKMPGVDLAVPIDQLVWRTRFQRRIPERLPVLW
# UniProt P35353, 24-415 limits assumed: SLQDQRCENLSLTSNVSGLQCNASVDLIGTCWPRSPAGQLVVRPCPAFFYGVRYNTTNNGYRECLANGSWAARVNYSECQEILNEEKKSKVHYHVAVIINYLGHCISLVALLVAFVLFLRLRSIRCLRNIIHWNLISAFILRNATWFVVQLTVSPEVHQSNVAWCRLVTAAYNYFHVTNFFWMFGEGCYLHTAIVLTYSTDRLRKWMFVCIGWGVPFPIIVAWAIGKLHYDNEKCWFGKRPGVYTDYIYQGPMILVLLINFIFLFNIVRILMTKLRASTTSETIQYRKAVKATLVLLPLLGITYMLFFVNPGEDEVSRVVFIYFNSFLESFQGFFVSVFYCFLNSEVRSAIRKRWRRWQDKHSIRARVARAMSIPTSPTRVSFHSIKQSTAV
# UniProt P08684, whole entry: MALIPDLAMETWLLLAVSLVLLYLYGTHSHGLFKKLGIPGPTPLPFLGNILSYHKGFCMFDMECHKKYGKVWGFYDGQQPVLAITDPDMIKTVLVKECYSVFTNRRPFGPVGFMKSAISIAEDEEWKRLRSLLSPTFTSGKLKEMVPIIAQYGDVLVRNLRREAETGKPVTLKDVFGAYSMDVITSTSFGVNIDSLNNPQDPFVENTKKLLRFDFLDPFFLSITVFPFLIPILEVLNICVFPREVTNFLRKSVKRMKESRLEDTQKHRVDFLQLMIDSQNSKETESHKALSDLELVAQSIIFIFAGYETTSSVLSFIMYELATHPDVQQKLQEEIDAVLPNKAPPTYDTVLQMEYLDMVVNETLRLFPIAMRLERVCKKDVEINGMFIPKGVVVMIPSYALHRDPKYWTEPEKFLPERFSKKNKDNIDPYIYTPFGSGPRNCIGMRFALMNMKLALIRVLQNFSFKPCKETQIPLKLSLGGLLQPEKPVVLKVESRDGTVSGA
# Each line is one published result; not all experiments were run side by side. Several values in a cell are separate wells, animals, samples, runs or records. Numbers after ± are the reported error.
# CYP1A2: Cytochrome P450 1A2 (CYP1A2, Homo sapiens, UniProt P05177)
# cyp121: Mycocyclosin synthase (cyp121, Mycobacterium tuberculosis, UniProt P9WPP7)
SMILES,target or system,assay,system,setting,how to read,measurement,value
CN(C(=O)Cc1c(Cl)cccc1Cl)[C@@H]1CCCC[C@H]1N1CCCC1,,,mouse liver microsomes,"0.5 µM, added: NADPH",,intrinsic clearance,11 mL/min/g
O=C(N[C@H](Cc1ccccc1)C(=O)O)c1sc2cc(F)ccc2c1Cl,CYP1A2,enzyme activity,,concentration not given,,inhibition,no effect
O=C(NC1CCN(c2ncnc3[nH]cnc23)CC1)c1cccc(S(=O)(=O)Nc2ccc(Cl)cc2)c1,A549-ACE2,,,66.67 µM,,viability,94.3%
"C=CC(c1ccc(-c2ccc(OC)c(C)c2)cc1)n1ccnc1 (single isomer, unassigned)",cyp121,,,enantiomer E1,,Kd,6.1 µM
O=C(Nc1ccccc1OS(=O)(=O)c1ccc(OC(F)(F)F)cc1)c1cnccn1,"1321-N1, MCF7, HEK-293T",MTT,,up to 100 µM,,cytotoxicity,not toxic
O=C(NCCNCCO)c1cc2c([nH]c3ccccc32)c(-c2cc(Cl)c(Cl)c(Cl)c2)n1,,,,pH 7.4,,kinetic solubility,3.05 µM
COCCN(CCOC)c1nc(C)nc2c(-c3c(OC)cc([76Br])cc3OC)c(C)nn12,"Corticotropin-releasing factor receptor 1 (Rattus norvegicus, UniProt P35353)",ex vivo autoradiography,"rat, prefrontal cortex",,baseline: non-receptor region,fold increase,~2 fold
Cc1ccc(S(=O)(=O)Nc2cccc(C(=O)NC3CCN(c4ncnc5[nH]cnc45)CC3)c2)cc1Cl,A549-ACE2,,,0.823 µM,,viability,101%
COc1cccc2c(N3CCC(CCP(=O)(O)O)CC3)ncnc12,,,"mouse, serum","subcutaneous, 300 mg/kg daily, 24 h after dose, dosed for 6 days",,mean trough concentration,~100 nM
COc1ccc(S(=O)(=O)N2CCCN(CC(=O)Nc3ccccc3OC)CC2)cc1,"Cytochrome P450 3A4 (CYP3A4, Homo sapiens, UniProt P08684)","enzyme activity, inhibitor",,,,IC50,4.6 µM
COc1ccc(S(=O)(=O)Nc2cccc(C(=O)NC3CCN(c4ncnc5[nH]cnc45)CC3)c2)cc1,A549-ACE2,,,0.823 µM,,viability,107%
[2H]c1c([2H])c(S(=O)(=O)N2CCC([2H])(C(=O)Nc3ccc4cc(C(=O)O)ccc4c3)CC2)c(C([2H])([2H])[2H])c([2H])c1C([2H])([2H])[2H],,,human liver microsomes,,,intrinsic clearance,< 5.8 µL/min/mg
CC1(C)CC[C@]2(C(=O)O)CC[C@]3(C)C(=CC[C@@H]4[C@@]5(C)CC[C@H](OC(=O)NCc6ccccc6)C(C)(C)[C@@H]5CC[C@]43C)[C@@H]2C1,,,"C57BL/6 mice, plasma","intraperitoneal, 85 µmol/kg",,AUC(0-inf),64.2 µM·h
NCCNCCSc1ccccc1,,,n-octanol/phosphate buffer,"pH 7.4, average of 10, 25, 50 µg/mL",,partition coefficient,0.25 ± 0.01
Cc1ccc2nc(-c3ccc4nc(-c5ccc(NC(=O)c6cccc(Cl)c6)cc5)sc4c3)sc2c1S(=O)(=O)O,,,aqueous buffer,pH 5.0,,solubility,36.7 µg/mL
CC[C@H](C)[C@@H]1NC(=O)[C@@H]2CSSC[C@H](NC(=O)[C@H](CCCNC(=N)N)NC(=O)[C@@H]3CSSC[C@H](NC1=O)C(=O)N[C@@H]([C@@H](C)O)C(=O)N[C@@H](CCCNC(=N)N)C(=O)NCC(=O)N[C@@H](Cc1ccccc1)C(=O)N3)C(=O)N[C@@H](CC(C)C)C(=O)N[C@H]1CSSC[C@H](NC(=O)[C@H](C(C)C)NC(=O)CNC(=O)[C@H](CCCNC(=N)N)NC(=O)[C@H](CCCNC(=N)N)NC1=O)C(=O)N[C@@H](CCCNC(=N)N)C(=O)N2,HeLa,MTT,,"48 h, 37 °C, 10% FBS",,highest non-toxic concentration,> 100 µM
CC(C)C[C@@H](NC(=O)[C@H](NC(=O)[C@H]1CCCN1)[C@H](C)O)C(=O)N[C@H](Cc1c[nH]cn1)C(=O)N[C@@H](C(=O)N[C@H](Cc1c[nH]cn1)C(=O)N[C@H](CC(N)=O)C(=O)N[C@H](CCCNC(=N)N)C(=O)N[C@H](CCCNC(=N)N)C(=O)N[C@H](CCCNC(=N)N)C(=O)N[C@H](CCCNC(=N)N)C(=O)N[C@H](CCCNC(=N)N)C(N)=O)[C@H](C)O,,,"healthy human, plasma",2 320 mg daily,baseline: AUC(0-inf) day 28 over AUC(0-24h),accumulation ratio,3.4
C[C@@H](O)[C@@H]1NC(=O)[C@@H]2CSCSC[C@@H](C(=O)N[C@H](CC(=O)N[C@@H](CCCNC(=N)N)C(=O)O)Cc3ccc(O)cc3)NC(=O)[C@H](CCC(N)=O)NC(=O)[C@H](Cc3ccc(O)c(I)c3)NC(=O)[C@H](CCCNC(=N)N)NC(=O)[C@H](CSSC[C@H](NC(=O)CN)C(=O)N2)NC(=O)[C@H](CCCNC(=N)N)NC(=O)[C@@H]2CCCN2C(=O)[C@H](CC(=O)O)NC1=O,cytochrome P450 isoforms,"enzyme activity, inhibitor",,10 µM,,inhibition,no inhibition
Fc1ccc(-c2csc(Cn3ccnc3)c2)cc1F,cyp121,binding,,,,Kd,5.3 ± 1.1 µM
Cc1ccc(NC(=O)C2CC3CCC2C3)c(C)c1 (stereo not shown),CYP1A2,"enzyme activity, inhibitor",,,,IC50,10.5 µM
COCn1cc(-c2cc([C@@H](C)NC(=O)c3cc(OCCN(C)C)ccc3C)c3ccccc3n2)cn1,Vero E6 cells,,,31.25 µM,,viability,103% and 102%
COc1ccc(NC(=O)CN2CCCN(S(=O)(=O)c3cccs3)CC2)c(OC)c1,CYP1A2,"enzyme inhibition, inhibitor",,,,IC50,8.46 µM
"[11CH3]Nc1ccc(C(=O)C2CCN(C3Cc4ccccc4CC3O)CC2)cc1 (single isomer, unassigned)",,,"Sprague-Dawley rat, liver","intravenous, dose not given, 5 min",,radioactivity uptake,3.45 %ID/g
C=C(C)[C@@H]1CC[C@]2(C(=O)NCC(=O)O)CC[C@]3(C)[C@H](CC[C@@H]4[C@@]5(C)CC[C@H](O)C(C)(C)[C@@H]5CC[C@]43C)[C@@H]12,,,,50 µL of 5 mg/mL DMSO solution,,aqueous solubility,3 dilution steps
Nc1nc(SCC(=O)NCCN2CCCCC2)nc2sc3c(c12)CCC(c1ccccc1)C3 (stereo not shown),,,mouse liver microsomes,30 min,,metabolized compound,58 ± 4%
CCn1ccc(-c2cc(-c3cnn(C)c3)cc([C@@H](C)NC(=O)c3cc(OCCN(C)C)ccc3C)c2)n1,Vero-AT,,,64 µM,,cytotoxicity,toxic
CC(CCN[C@H](CN[C@H](CO)CN1CCC[C@H]1CN[C@H](CN)c1ccccc1)c1ccccc1)c1ccccc1 (stereo partly shown),Acinetobacter baumannii,bacterial growth,,compound alone,,IC50,> 24 µM
O=C(NC1CCN(c2ncnc3[nH]cnc23)CC1)c1cccc(NS(=O)(=O)c2ccc(Cl)cc2)c1,A549-ACE2,,,0.2743 µM,,viability,103%
Cc1cccc2c1[nH]c1c(-c3ccc(Cl)c(Cl)c3)nc(C(=O)NCCNCCO)cc12,,,,pH 7.4,,kinetic solubility,55.4 µM
O=C(NC1CCN(c2ncnc3[nH]cnc23)CC1)c1cccc(NS(=O)(=O)c2ccc([N+](=O)[O-])cc2)c1,A549-ACE2,,,200 µM,,viability,89.9%
CC(C)[C@H](N)C(=O)N[C@@H](Cc1ccc(O)cc1)C(=O)N[C@@H](Cc1ccc(O)cc1)C(=O)N[C@@H](CCCNC(=N)N)C(=O)O,,,citrate phosphate buffer,pH 2.6,,maximum solubility,≥ 10000 µM

# Repeated from above:
SMILES,target or system,assay,system,setting,how to read,measurement,value
COc1ccc(S(=O)(=O)N2CCCN(CC(=O)Nc3ccccc3OC)CC2)cc1,"Cytochrome P450 3A4 (CYP3A4, Homo sapiens, UniProt P08684)","enzyme activity, inhibitor",,,,IC50,4.6 µM
COc1ccc(S(=O)(=O)Nc2cccc(C(=O)NC3CCN(c4ncnc5[nH]cnc45)CC3)c2)cc1,A549-ACE2,,,0.823 µM,,viability,107%
[2H]c1c([2H])c(S(=O)(=O)N2CCC([2H])(C(=O)Nc3ccc4cc(C(=O)O)ccc4c3)CC2)c(C([2H])([2H])[2H])c([2H])c1C([2H])([2H])[2H],,,human liver microsomes,,,intrinsic clearance,< 5.8 µL/min/mg
